Assay results of several laboratories.
Every numbered part comes from another study and shows a few of its results, in no order. Changes are numbered by the printed parent chain.

Study 1
Target: Fragile X messenger ribonucleoprotein 1, C-terminal low-complexity region (Fmr1, Mus musculus, UniProt P35922)
Method: RNA Bind-n-Seq
Form: RNA
Matrix: in vitro
Tested at: 200 nM
Setting: whole 134-nt RNA, ends assumed
With: 150 mM LiCl
Relative to: input library
Direction: higher = stronger binding
Each molecule: 7-deaza-guanosine replaces G
All sequences stand within: GGGAGUUCUACAGUCCGACGAUC … UGGAAUUCUCGGGUGUCAAGG
Oligonucleotide | log2 enrichment
CCUGUGCUACACAUCGUAUGUACCGAAUCGGGAAAAAAGGGAAAAAAGGGGAAAAAAGGGAAAGUAUUAUGUUACGCCGUUCGGAUCUGC | -0.27
CUGUGCUACACAUCGUAUGUACCGAAUCGUGUGUGUGUGUGUGUGUGUGUGUGUGUGUGUGUAAAGUAUUAUGUUACGCCGUUCGGAUCU | -0.156
CACAGACAACACGCACCCACACAGACACAGAGGGAAGGGGUUGGGAUGGGGACAGGGUGCACACCAGGGCGGGGUAGGACCCCAGCCCCU | 0.598
CAAGUCCUGUGCUACACAUCGUAUGUACCGAAUCGGGAAAAAGGGUGGGUUUGGGAAAGUAUUAUGUUACGCCGUUCGGAUCUGCACUUC | -1.62
AGUCCUGUGCUACACAUCGUAUGUACCGAAUCGGUUUUUGGUUUUUGGAAAAAAAGGAAAGUAUUAUGUUACGCCGUUCGGAUCUGCACU | -2.58
AAGUCCUGUGCUACACAUCGUAUGUACCGAAUCGGAAAAAAAGGAAAAAAAGGUGGAAAGUAUUAUGUUACGCCGUUCGGAUCUGCACUU | -2.2
CACAGACAACACGCACCCACACAGACACAGAGGGAAGGGGUUGGGAUGGGGACAGGGUGCACAGCAGGGCGGGGUAGGACCCCUGCCCCU | -0.606
AAGUCCUGUGCUACACAUCGUAUGUACCGAAUCGGGGCCCGGGCCCGGGGCCCGGGGAAAGUAUUAUGUUACGCCGUUCGGAUCUGCACU | -2.32
GUCCUGUGCUACACAUCGUAUGUACCGAAUCGGUUUUUGGUUUUUGGGGUUUUUGGGGAAAGUAUUAUGUUACGCCGUUCGGAUCUGCAC | -0.611
UCAAGUCCUGUGCUACACAUCGUAUGUACCGAAUCGGGAAAGGGAGGGUUUGGGAAAGUAUUAUGUUACGCCGUUCGGAUCUGCACUUCC | -0.734
GCAGGAAGUAAAAACAAAUGGAAAUGCUUCGGAUAGUGGCAGGGGUGGGGGUUGCUAAGUAAAGGGUGGGAUGGGAGUGGGUAAAGAGUU | 1.73

Study 2
Target: CCNB1, cyclin fold, Cln2 fusion (human)
Method: yeast growth competition, sequencing
Matrix: yeast
Setting: weak parent motif
Relative to: not given
Direction: higher = stronger binding
Starting sequence: WEE2 docking peptide (human); KELRQKLNFSYCE
Change | normalised enrichment score
E2A | 0.587
K1A | 0.142
L7A | 0.0032
F9A | -0.0377
S10A | 0.486
Y11A | 0.208

Study 3
Target: Centromere-binding protein 1, full length, N-terminal tag (CBF1, Saccharomyces cerevisiae, UniProt P17106, residues 1-351)
Chain of UniProt P17106 (whole entry, looked up): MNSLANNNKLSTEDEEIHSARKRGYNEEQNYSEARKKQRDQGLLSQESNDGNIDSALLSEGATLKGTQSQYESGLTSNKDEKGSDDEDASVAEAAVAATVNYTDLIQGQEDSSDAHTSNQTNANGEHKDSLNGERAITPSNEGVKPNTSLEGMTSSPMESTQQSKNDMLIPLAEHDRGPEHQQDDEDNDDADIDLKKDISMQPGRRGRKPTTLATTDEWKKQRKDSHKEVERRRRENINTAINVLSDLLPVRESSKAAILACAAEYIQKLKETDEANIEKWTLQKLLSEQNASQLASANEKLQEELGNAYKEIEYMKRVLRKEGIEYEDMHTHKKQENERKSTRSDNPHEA
Method: protein-binding microarray
Form: double-stranded DNA, one strand shown
Matrix: in vitro
Tested at: 0.8 µM
Setting: whole 60-bp probe, no competitor
Direction: higher = stronger binding
All sequences stand within: … GTCTTGATTCGCTTGACGCTGCTG
Oligonucleotide | fluorescence intensity [a.u.]
GAATTTCTTTCGCATGTGGTCGCTGTATGAGACTAG | 1250
CTATTGAGTGTGCGTGATGTTGTGTGTGTGTGTTTC | 680
GAATGCATAATGACGGACGTGACTATAAATTTCTAG | 961
CTACACTGACGGGGTCACGTGTGTTTATTCTGTTTC | 13800
CTATTCTTCTCTGTGCACGTTTTAATGCATGAATTC | 699
CCTAACTACTATAATAGCGTCACATAGCTTCGTACA | 514
GAATTTTTCCATTGCACCGTGACTCTGGATTAATAG | 762
TGTACGAAGCTATTGCACGCTATTATAGTAGTTAGG | 525
GAATTACGTTACTATCACGTGATAACAATCACATAG | 28300
GAACATACACATATATGCGTGCATGTTGGCAAGTAG | 534
CTAATGCTCTATTATATCGTGATTTAATGACGGTTC | 714
GAACCCGAATAAGGTCACGTCGATTTAAATGTTTAG | 1360
GAATAATTAAGAGGTGGTGTCTTACACTCACCATAG | 486
CTATGCTGTTTCCATCACGTGCATGTCACGTTTTTC | 12500
GAAAGAAGAAAAGCTGACGAAAAAAGAACTCATTAG | 519
CTACATTGTAGCAAAAATGTGCGTGAAGCGTCTTTC | 530
CTAACAGCATATAATCTGATGACTGAGAGGTCTTTC | 520
CTAAACCTATAAACACACGTTTTATACTTTATCTTC | 544
GAACACGATATATTTAATGTGACACCCATTTTATAG | 606
GAAATAGCTGAGCATCATGTGAGTAAACGAGTATAG | 857

Study 4
Target: ABI1, truncated, D143A, DHFR fusion (Arabidopsis thaliana)
Method: DHFR PCA, deep sequencing
Matrix: yeast
Setting: methotrexate growth selection, single substitutions
With: (+)-ABA 0.0091 µM
Relative to: wild-type fitted maximum
Direction: higher = stronger binding
Starting sequence: PYL1, truncated, DHFR fusion (Arabidopsis thaliana); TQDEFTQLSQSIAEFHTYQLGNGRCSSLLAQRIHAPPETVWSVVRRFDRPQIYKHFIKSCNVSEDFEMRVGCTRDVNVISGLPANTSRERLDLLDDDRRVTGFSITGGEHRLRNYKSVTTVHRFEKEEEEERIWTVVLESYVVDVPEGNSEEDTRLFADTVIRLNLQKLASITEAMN
Change | relative binding score [%]
V62P | -1.96
T86Y | 29.6
G107A | 19
H122G | -0.69
S87W | 33.4
H16K | -8.99
N85H | 74.5
R49Q | 42.1
F47T | -0.974
Y18C | -0.341
S26T | 30.4
W134I | 17.5
I52A | 33.3
R155L | 2.86
E64A | 30.9
V136M | 5.5
L164T | 4.97
L29E | -2.9
H16G | 2.6
V136H | 0.838
T106W | -6.67
N61M | 29.2
N61T | 60.1
T39N | -6.2

Study 5
Target: Prothrombin, mature alpha-thrombin (F2, Homo sapiens, UniProt P00734)
Method: aptamer microarray, sandwich
Form: DNA with 2'F-ANA
Matrix: in vitro
Tested at: 200 nM
Setting: whole 15-mer aptamer, many near background
With: Cy3 exosite-II aptamer, 400 nM
Direction: higher = stronger binding
Oligonucleotide: GGTTGGTGTGGTTGG
Modification | mean fluorescence intensity [a.u.]
2'F-ANA at 1 4 5 6 7 8 10 11 12 15 | 66.9
2'F-ANA at 3 7 12 14 15 | 731
2'F-ANA at 1 2 3 4 7 10 11 14 15 | 46.3
2'F-ANA at 1 2 4 5 8 9 10 12 15 | 55.3
2'F-ANA at 2 3 8 9 10 11 12 14 | 286
2'F-ANA at 2 4 5 10 13 14 15 | 79.1
2'F-ANA at 1 2 4 5 6 7 8 10 11 | 48
2'F-ANA at 3 4 7 9 10 11 15 | 299
2'F-ANA at 3 4 7 14 15 | 385
2'F-ANA at 1 3 5 8 11 14 | 47.8
2'F-ANA at 3 4 6 7 9 11 13 15 | 366
2'F-ANA at 3 4 7 12 13 15 | 773
2'F-ANA at 1 3 5 10 11 12 13 | 48.8
2'F-ANA at 3 4 5 6 7 9 11 14 15 | 51.3
2'F-ANA at 1 2 5 6 7 8 10 11 12 13 | 69.7
2'F-ANA at 5 6 9 14 | 51.9
2'F-ANA at 1 2 3 4 6 11 12 13 14 | 64.1
2'F-ANA at 2 4 5 6 8 10 12 14 | 48.4
2'F-ANA at 1 5 7 8 10 12 13 | 50.6
2'F-ANA at 3 6 10 11 13 15 | 430
2'F-ANA at 1 10 11 12 15 | 71.1
2'F-ANA at 3 4 5 6 8 10 14 15 | 62.1
2'F-ANA at 4 6 7 10 | 79.9
2'F-ANA at 1 2 3 4 6 9 10 14 | 48.4
2'F-ANA at 1 2 3 4 7 9 | 173

Repeated from above (study 1):
Oligonucleotide | log2 enrichment
AAGUCCUGUGCUACACAUCGUAUGUACCGAAUCGGGGCCCGGGCCCGGGGCCCGGGGAAAGUAUUAUGUUACGCCGUUCGGAUCUGCACU | -2.32
GCAGGAAGUAAAAACAAAUGGAAAUGCUUCGGAUAGUGGCAGGGGUGGGGGUUGCUAAGUAAAGGGUGGGAUGGGAGUGGGUAAAGAGUU | 1.73
AGUCCUGUGCUACACAUCGUAUGUACCGAAUCGGUUUUUGGUUUUUGGAAAAAAAGGAAAGUAUUAUGUUACGCCGUUCGGAUCUGCACU | -2.58
CACAGACAACACGCACCCACACAGACACAGAGGGAAGGGGUUGGGAUGGGGACAGGGUGCACAGCAGGGCGGGGUAGGACCCCUGCCCCU | -0.606
CAAGUCCUGUGCUACACAUCGUAUGUACCGAAUCGGGAAAAAGGGUGGGUUUGGGAAAGUAUUAUGUUACGCCGUUCGGAUCUGCACUUC | -1.62
CACAGACAACACGCACCCACACAGACACAGAGGGAAGGGGUUGGGAUGGGGACAGGGUGCACACCAGGGCGGGGUAGGACCCCAGCCCCU | 0.598
GUCCUGUGCUACACAUCGUAUGUACCGAAUCGGUUUUUGGUUUUUGGGGUUUUUGGGGAAAGUAUUAUGUUACGCCGUUCGGAUCUGCAC | -0.611
AAGUCCUGUGCUACACAUCGUAUGUACCGAAUCGGAAAAAAAGGAAAAAAAGGUGGAAAGUAUUAUGUUACGCCGUUCGGAUCUGCACUU | -2.2
UCAAGUCCUGUGCUACACAUCGUAUGUACCGAAUCGGGAAAGGGAGGGUUUGGGAAAGUAUUAUGUUACGCCGUUCGGAUCUGCACUUCC | -0.734
CUGUGCUACACAUCGUAUGUACCGAAUCGUGUGUGUGUGUGUGUGUGUGUGUGUGUGUGUGUAAAGUAUUAUGUUACGCCGUUCGGAUCU | -0.156
CCUGUGCUACACAUCGUAUGUACCGAAUCGGGAAAAAAGGGAAAAAAGGGGAAAAAAGGGAAAGUAUUAUGUUACGCCGUUCGGAUCUGC | -0.27
